Measurements collected from several papers.
Each line is one published result; not all experiments were run side by side. Numbers after ± are the reported error.

| Compound | test | system | conditions | how to read | quantity | result |
| --- | --- | --- | --- | --- | --- | --- |
| N=C(N)NCCC[C@@H]1NC(=O)[C@H](CCCCNC(=O)CNC(=O)CNC(=O)CNC(=O)CC[C@H](NC(=O)c2ccc(NN=Cc3ccccc3S(=O)(=O)O)nc2)C(=O)NCC(=O)NCC(=O)NCC(=O)NCCCC[C@@H]2NC(=O)[C@@H](Cc3ccccc3)NC(=O)[C@H](CC(=O)O)NC(=O)CNC(=O)[C@H](CCCNC(=N)N)NC2=O)NC(=O)[C@@H](Cc2ccccc2)NC(=O)[C@H](CC(=O)O)NC(=O)CNC1=O [technetium-99m labelled] | – | athymic nu/nu mouse, female, U-87 MG glioma xenograft | intravenous, 120 min | reference: tumour over liver | tumour to tissue ratio | 2.39 ± 0.5 |
| N=C(N)NCCC[C@@H]1NC(=O)[C@H](CCCCNC(=O)CNC(=O)CNC(=O)CNC(=O)CC[C@H](NC(=O)CNC(=O)CNC(=O)CNC(=O)[C@H](CCCCNC(=O)c2ccc(NN)nc2)NC(=O)c2ccc(NN)nc2)C(=O)NCC(=O)NCC(=O)NCC(=O)NCCCC[C@@H]2NC(=O)[C@@H](Cc3ccccc3)NC(=O)[C@H](CC(=O)O)NC(=O)CNC(=O)[C@H](CCCNC(=N)N)NC2=O)NC(=O)[C@@H](Cc2ccccc2)NC(=O)[C@H](CC(=O)O)NC(=O)CNC1=O [technetium-99m labelled] | – | female athymic nude mice | intravenous, 1 h, U-87 MG glioma xenograft | reference: tumour over muscle | tissue ratio | 9.64 ± 0.46 |
| CCCC[C@H](NC(=O)CNC(=O)CNC(=O)c1ccc(NN)nc1)C(=O)N[C@H]1CC(=O)NCCCC[C@@H](C(N)=O)NC(=O)[C@H](Cc2c[nH]c3ccccc23)NC(=O)[C@H](CCCNC(=N)N)NC(=O)[C@@H](Cc2ccccc2)NC(=O)[C@H](Cc2c[nH]cn2)NC1=O [technetium-99m labelled] | – | C57 mouse, B16/F1 melanoma, lung | 2 h, added: NDP-MSH 6.07 nmol blockade | – | uptake | 0.34 ± 0.11 %ID/g |
| N=C(N)NCCC[C@@H]1NC(=O)[C@H](CCCCNC(=O)CC[C@H](NC(=O)CCOCCOCCOCCOCCNC(=O)CC[C@H](NC(=O)CN2CCN(CC(=O)O)CCN(CC(=O)O)CCN(CC(=O)O)CC2)C(=O)NCCOCCOCCOCCOCCC(=O)N[C@@H](CCC(=O)NCCCC[C@@H]2NC(=O)[C@@H](Cc3ccccc3)NC(=O)[C@H](CC(=O)O)NC(=O)CNC(=O)[C@H](CCCNC(=N)N)NC2=O)C(=O)NCCCC[C@@H]2NC(=O)[C@@H](Cc3ccccc3)NC(=O)[C@H](CC(=O)O)NC(=O)CNC(=O)[C@H](CCCNC(=N)N)NC2=O)C(=O)NCCCC[C@@H]2NC(=O)[C@@H](Cc3ccccc3)NC(=O)[C@H](CC(=O)O)NC(=O)CNC(=O)[C@H](CCCNC(=N)N)NC2=O)NC(=O)[C@@H](Cc2ccccc2)NC(=O)[C@H](CC(=O)O)NC(=O)CNC1=O [indium-111 labelled] | – | athymic nude mice, female, U-87 MG glioma xenograft, tumour and lungs | intravenous, 72 h | reference: tumour over lungs | tumour to tissue ratio | 8.94 ± 5.37 |
| CC(C)C[C@H](NC(=O)C[C@H](O)[C@H](CC(C)C)NC(=O)[C@H](Cc1c[nH]cn1)NC(=O)CNC(=O)[C@@H](NC(=O)[C@H](C)NC(=O)[C@H](Cc1c[nH]c2ccccc12)NC(=O)[C@H](CCC(N)=O)NC(=O)[C@@H](Cc1ccccc1)NC(=O)c1ccc(NC(=O)CNC(=O)CCC(C(=O)O)N2CCN(CC(=O)O)CCN(CC(=O)O)CC2)cc1)C(C)C)C(N)=O (stereo partly drawn) [fluorine-18 labelled] | PET imaging | mouse, PC-3 xenograft | intravenous, 1 h, blocking, added: AMBA 10 mg/kg | – | tumour uptake | 1.6 ± 0.34 %ID/g |
| N=C(N)NCCC[C@@H]1NC(=O)[C@H](CCCCNC(=O)CCOCCOCCOCCOCCNC(=O)CN2CCN(CC(=O)O)CCN(CC(=O)O)CCN(CC(=O)O)CC2)NC(=O)[C@@H](Cc2ccccc2)NC(=O)[C@H](CC(=O)O)NC(=O)CNC1=O [indium-111 labelled] | – | athymic nude mice, female, U-87 MG glioma xenograft, tumour and lungs | intravenous, 0.5 h | reference: tumour over lungs | tumour to tissue ratio | 0.83 ± 0.14 |
| CCCC[C@H](NC(=O)CCCCCCCNC(=O)c1ccc(NN)nc1)C(=O)N[C@H]1CC(=O)NCCCC[C@@H](C(N)=O)NC(=O)[C@H](Cc2c[nH]c3ccccc23)NC(=O)[C@H](CCCNC(=N)N)NC(=O)[C@@H](Cc2ccccc2)NC(=O)[C@H](Cc2c[nH]cn2)NC1=O [technetium-99m labelled] | – | C57 mouse, B16/F1 melanoma, stomach | intravenous, 4 h | – | uptake | 0.73 ± 0.21 %ID/g |
| N=C(N)NCCC[C@@H]1NC(=O)[C@H](CCCCNC(=O)CC[C@H](NC(=O)CCOCCOCCOCCOCCNC(=O)CN2CCN(CC(=O)O)CCN(CC(=O)O)CCN(CC(=O)O)CC2)C(=O)NCCCC[C@@H]2NC(=O)[C@@H](Cc3ccccc3)NC(=O)[C@H](CC(=O)O)NC(=O)CNC(=O)[C@H](CCCNC(=N)N)NC2=O)NC(=O)[C@@H](Cc2ccccc2)NC(=O)[C@H](CC(=O)O)NC(=O)CNC1=O [indium-111 labelled] | – | athymic nude mice, female, U-87 MG glioma xenograft, tumour and blood | intravenous, 4 h | reference: tumour over blood | tumour to tissue ratio | 22 ± 2.79 |
| CSCC[C@H](NC(=O)[C@H](CC(C)C)NC(=O)[C@H](Cc1c[nH]cn1)NC(=O)CNC(=O)[C@@H](NC(=O)[C@H](C)NC(=O)[C@H](Cc1c[nH]c2ccccc12)NC(=O)[C@H](CCC(N)=O)NC(=O)CCCCCNC(=O)CNC(=O)CNC(=O)CNC(=O)CSC(C)=O)C(C)C)C(N)=O [technetium-99m labelled] | – | Swiss mouse, blood | intravenous, 18.5 MBq, 240 min | – | tissue uptake | 0.05 ± 0.01 %ID/g |

For quick reference, copied from above:
| Compound | test | system | conditions | how to read | quantity | result |
| --- | --- | --- | --- | --- | --- | --- |
| N=C(N)NCCC[C@@H]1NC(=O)[C@H](CCCCNC(=O)CC[C@H](NC(=O)CCOCCOCCOCCOCCNC(=O)CN2CCN(CC(=O)O)CCN(CC(=O)O)CCN(CC(=O)O)CC2)C(=O)NCCCC[C@@H]2NC(=O)[C@@H](Cc3ccccc3)NC(=O)[C@H](CC(=O)O)NC(=O)CNC(=O)[C@H](CCCNC(=N)N)NC2=O)NC(=O)[C@@H](Cc2ccccc2)NC(=O)[C@H](CC(=O)O)NC(=O)CNC1=O [indium-111 labelled] | – | athymic nude mice, female, U-87 MG glioma xenograft, tumour and blood | intravenous, 4 h | reference: tumour over blood | tumour to tissue ratio | 22 ± 2.79 |
